# Published values collected from several papers.
# A part holds a random share of what one study measured.

# Sample 1 — method: protein-binding microarray; molecule type: double-stranded DNA, one strand shown; matrix: in vitro; tested at: 250 nM; setting: 60-bp whole probe; added: salmon DNA 0.4 mg/ml; relative to: random background probes; reading: higher = stronger binding; shared flanks, not repeated: GCCTAGCAC … GTCTTGATTCGCTTGACGCTGCTG
# Target: Interferon regulatory factor 7, full length, phosphomimetic (IRF7, Homo sapiens, UniProt Q92985, residues 1-503, S101K/S471D/S472D/S475D/S476D/S477D/S483D/S484D/S487D)
# Residues (chain): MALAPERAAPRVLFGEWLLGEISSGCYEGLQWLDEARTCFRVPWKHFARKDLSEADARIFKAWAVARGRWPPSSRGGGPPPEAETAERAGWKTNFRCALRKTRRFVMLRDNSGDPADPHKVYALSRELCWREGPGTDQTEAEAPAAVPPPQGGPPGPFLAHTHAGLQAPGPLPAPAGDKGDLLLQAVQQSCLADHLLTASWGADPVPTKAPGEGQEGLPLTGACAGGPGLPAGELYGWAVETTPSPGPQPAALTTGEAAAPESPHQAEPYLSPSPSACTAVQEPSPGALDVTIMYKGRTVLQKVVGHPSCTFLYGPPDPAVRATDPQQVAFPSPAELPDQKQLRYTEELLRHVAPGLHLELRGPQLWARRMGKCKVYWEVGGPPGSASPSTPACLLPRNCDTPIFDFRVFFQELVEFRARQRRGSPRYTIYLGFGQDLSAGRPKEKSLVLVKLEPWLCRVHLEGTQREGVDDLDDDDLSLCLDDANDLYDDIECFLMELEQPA
Strand,log fluorescence [z-score]
TTAGATATAAGTATCGATTAGTGCTAG,0.948
TCAATTTTTAGTTAGAAACTGTGCTAG,0.214
TTAGGTCTCGACTTTCGGTTAGTGCTA,3.5
TTAGATATCGGGACCGGATTAGTGCTA,0.608
GACGATATCAGTATCGAGGCGTGCTAG,0.0301
GACCGTCTCGGTCTCGGGACGTGCTAG,0.596
GACGATCTCAGTCGCGAGACGTGCTAG,-0.0319
GACGGTTTCGGTCTCGGGAGGTGCTAG,7.76
GAAGGTTTCGGTATCGGGACGTGCTAG,10.2
TCAACTCTCTAATTTTGACTGTGCTAG,0.0566
GACGGTATCCTACTGCTGGCGTGCTAG,-0.232
GACGATCTCAGACTGGCGACGTGCTAG,-0.216
TTAGGACTAGGTTTCGGTTAGTGCTAG,8.23
ATAGGACTGGGTCTCGGTTAGTGCTAG,0.887
TTAGGGCTGGGTTTCGGTTAGTGCTAG,5.64
TCATTGTTCTCTCTGGCACTGTGCTAG,0.477
TCAGCATTCCCTTTCTCACTGTGCTAG,0.576
GACGGTCTCCTTTTCCTGTCGTGCTAG,2.09
GACGAACCGGGGTATCGAGACGTGCTA,-0.126
GACGATATCGGGTATCCAGACGTGCTA,-0.2
GACGGTATCCTTATCTTGACGTGCTAG,-0.0185
TTAGGACTGAACTTTCGGTTAGTGCTA,0.887
TTAGGTCTCGGTACCGGTTAGTGCTAG,1.03
GGCTTTTTTTTTTTTTTTTTGTGCTAG,0.168
CTCCATGAACAGGGCTGATGGTGCTAG,-0.187

# Sample 2 — method: protein-binding microarray; molecule type: double-stranded DNA, one strand shown; matrix: in vitro; tested at: 0.8 µM; setting: whole 60-bp probe, no competitor; reading: higher = stronger binding; shared flanks, not repeated: … GTCTTGATTCGCTTGACGCTGCTG
# Target: Centromere-binding protein 1, full length, N-terminal tag (CBF1, Saccharomyces cerevisiae, UniProt P17106, residues 1-351)
# Chain of UniProt P17106 (whole entry, looked up): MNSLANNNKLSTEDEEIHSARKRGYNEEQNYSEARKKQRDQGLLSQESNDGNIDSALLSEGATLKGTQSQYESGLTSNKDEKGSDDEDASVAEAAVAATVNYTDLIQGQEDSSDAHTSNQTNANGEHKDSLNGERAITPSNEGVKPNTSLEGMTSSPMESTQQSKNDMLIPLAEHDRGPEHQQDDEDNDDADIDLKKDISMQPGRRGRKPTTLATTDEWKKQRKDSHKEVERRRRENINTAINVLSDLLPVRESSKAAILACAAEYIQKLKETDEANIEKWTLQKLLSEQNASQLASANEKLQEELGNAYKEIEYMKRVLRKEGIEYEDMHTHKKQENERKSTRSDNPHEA
Strand,fluorescence intensity [a.u.]
CTACATGGTGTCCATCACGGTCACATGGTGCAGTTC,10000
CTAAAAAGGTGCACACGCGTGGCTTTTTCTTGATTC,617
CTAGAAAAGTATTACATCAGCACGAGTAACAACTTC,624
CTACTGTGCTAGTCCCACGTGTGAGTGCCAAGGTTC,1600
CTAACTCTTCTATCGCACATGTATGGTTCTTATTTC,616
GAAGCTTTACTGAACATCAGCACCTTGAATTTCTAG,522
GAATATATAAAAGAACAGGTGACTCCGTTTTCATAG,1880
CTATTGCATCCCCCAGACACCACCTCTTTTGTTTTC,521
GAATAAAAATGCTATGTCACCTCGAAAGCAAGATAG,578
TGTACGAAGCTATAACACGTATGTATAGTAGTTAGG,498
CTATGCAACTCTCTAATGGTGATGACTTATTGATTC,545
GAAGAAAAAATACTTAACGTGTTTCGAAACTGTTAG,524
CCTAACTACTATACACTGATGACATAGCTTCGTACA,547
GAAACAAATAGCCATCATGATTCTCTTTTAAGATAG,531
GAAAGAAAAGTACATGATGTGTAAATTAACAAGTAG,530
GAACACAGCCCACCTCACCCCACAGGAAAACAGTAG,532
CCTAACTACTATAACCTCATGATATAGCTTCGTACA,584
GAACTTCAAAAAACCCATGTGAGACTGAAACATTAG,654
GAACGATAGCTAAATCACGTTTAACGAAGATTTTAG,919
GAACTATTTCATCGTGCTCACGTGGTTTCATTATAG,8640
GAAATTGAACAACACCACGCAGTCTAGTAATGTTAG,514
GAATGTCATAATTACCACATGCCCTTTATATGTTAG,765
GAACCCTCCACGGATCACCCCATTTGGAAAAGATAG,545
GAAGACAAGCAACCACACCACATGAGCTCACAATAG,604
CTATGATGTTGTATATGCCTGATGTAATCACGATTC,544

# Sample 3 — method: RNA Bind-n-Seq; molecule type: RNA; matrix: in vitro; tested at: 365 nM; relative to: no-protein control; reading: higher = stronger binding
# Target: RNA binding protein fox-1 homolog 2, RRM domain, GST-SBP tag (RBFOX2, Homo sapiens, UniProt O43251-10, residues 100-194)
# Setting: natural RNA segment, single round, ends assumed
# Shared flanks, not repeated: GGGAGUUCUACAGUCCGACGAUC … UGGAAUUCUCGGGUGCCAA
# Target sequence (chain): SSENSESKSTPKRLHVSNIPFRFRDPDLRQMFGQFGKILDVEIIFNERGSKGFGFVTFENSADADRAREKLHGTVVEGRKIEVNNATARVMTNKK
Strand,RBNS enrichment (R)
CCACCCCUGGCCCCCUACCCUUAGAUUCUCUGUGUUCCACAAGGAGACAUCAUGAGAUGUCUUCCUUAAGCUGCACCAAGCCAUUGUCCUCCGUUGUUCCCAGGACUCAA,0.584
ACCUUGACGUUGCAGUGCAGUUUCACAGAUCGUUGUUAGAUCUUUAUUUUUAGCCAUGCACUGUUGUGAGGAAAAAUUACCUGUCUUGACUGCCAUGUGUUCAUCAUCUU,0.544
ACCGGCAACUGCAUGUACCUCCUCCCUUUCUCAUUUCCAAUGAUGUACCCUGUACACGUGUUCAUGCUGUGUCUGGCUCUCAUCUGCACAAUCGUGCAUAGAAUUGCCUC,0.743
CACUGCUGCUGGCUCCCGAGGACAGUGGGACUUUAGCAAGGAAGUGCAGCCGAGGGGUAAAGAGCCCUCUGGUUCAUUGCCUGAUCGGCUUUGAGAGAGGGUUUGGAGGG,0.83
AUAUUUUACUGAUUGGAAAUGUCAUCCUUUAUUAAAAAUAAACAUGGUUUUCCAUAGUUGCCUGCCACCUAAGUUCACAUUAUUCUUCUUUUAUAUCAUUAUCACUAGUU,0.83
GCAUUUUGGGAGGCUGAGGCAGGUGGAUCACUUGAGAUCAAGAGCUUAAAACCAGCCCAGGCAACAUGGCAAAACCCCGUCUCUACAAAAAAAUACAAAAACUAGCUGGG,1.02
UUUGAGAUGUGUAAUUCUUUUAUGGAGUUUUUAAAAAGAAUUUUCAUAUUGUUUUUUCUAACAUGGCUUCAUUAAACGUUUAAGUAUUUUAAAACUAUGUAAUAUUUGGA,0.76
CUUUUUUAAAACCUAUUCAGGAUUAUUAGCCUGGACUUGGACACAGAGUUUGUAAAUAAAGGUGUCUGUGCAGAUUUUCCCACUGAUUUAUUUGUAUAAAAAUACUCAUC,1.1
UAAAUUCUUCCUAAGUUCUCUGCUCAUUAAUCUUCAGACCACAGUUACUAAAACUGUGGCUUAGUAGUAAGCUGAGGGCUAAAUGAGAGACUGCUAUUCUAAGAGCAUCA,0.319

# Sample 4 — method: RNA Bind-n-Seq; molecule type: RNA; matrix: in vitro; tested at: not given; relative to: input RNA pool; reading: higher = stronger binding
# Target: RING finger protein unkempt homolog, zinc fingers 1-6, GST-SBP tag (UNK, Homo sapiens, UniProt Q9C0B0, residues 30-357)
# Setting: RNA with constant flanks, human and mouse sites, ends assumed
# Shared flanks, not repeated: GGGAGUUCUACAGUCCGACGAUC … CAACAGAGGAUUGAGCAUCA
# Construct (chain): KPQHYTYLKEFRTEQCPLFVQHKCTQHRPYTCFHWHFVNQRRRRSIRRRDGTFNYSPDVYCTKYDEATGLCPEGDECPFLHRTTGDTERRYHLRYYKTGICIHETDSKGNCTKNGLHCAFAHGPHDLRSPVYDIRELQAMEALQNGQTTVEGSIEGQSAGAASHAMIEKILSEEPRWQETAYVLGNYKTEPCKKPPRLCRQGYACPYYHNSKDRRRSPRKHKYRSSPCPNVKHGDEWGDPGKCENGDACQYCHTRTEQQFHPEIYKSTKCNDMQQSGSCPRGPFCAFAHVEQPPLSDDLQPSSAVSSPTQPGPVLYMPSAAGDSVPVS
Strand,bound/input enrichment [ratio]
AUGAUGGGCCACGGAUCUGACUACUCACUCAGUGAAGUGCUGUGGGUCUGUGCCAACCUCUUUAGUGAUGUCCAAUUCAAGAUGAGUCAUAAGAGGAUCAUGCUGUUCACCAAUGAAGAC,0.289
ACUGUGAAGGAAGAAAAAAGUUGGCAUUUCUUGGUCCUCCGUUCAUAACACAAAGCAGAGUAGUAUUUUUAUAUUUAAAUGUUAAAAACAAAAAAGUUAUAUAUAUAUGGAUGUGUGGAU,4.48
UAAUAUUUUUGUGAACUGGUGUAAAUUGUUAAUGCAUAUAAGCUUGUGUAUUUUUGUAAAUAGUUUUGUGAUUUACUUCUUGCCCCCUGUGUAAAUAUUUACAGUCUCAUUUCUUCCAAA,0.521
AAAUAUAACACUUAAUUAGCAGUGAUUUUUUUUGUUUAUGUAAUAAUAACUAUAACUUUGUUAUGACUGUGAACCUUAAUUUUAACACUUUAAAUAUAGCAUAUUCCAUUGUUUAGAGAU,14.9
GUCGACGUGUGCAGAAGUCCUGGUAAUCUGGUCCUUGUUCCCGUCUGGAUACCAGCUUCCUUCAGCAGCGCAGGCGGUGGUCCCUGAGGCCCGUGGAAGGAGUCAAACUUGCGGGAAUUU,0.11
GAGGCCCCGGAACCCGAGCUGGAGCUGAAGCGCAGGCUGCGGGCGCGGAGUCGGGAGGCUGAGUGUUCAUUCCAGCAUGUCGGAAGGGGAGUCCCAAACAGUAGUCAGCAGUGGCUCAGA,0.162
GUUAUGGAAAUAAAUAAUGAAGAGAAACCAGACCCGGGAGCAGAAGAGGAGUUUGGAGGUCUUGUGUCUGCUAACCUUAUACUUUUGAGGAACAGGCUCCUAGACAUCUUGCUAAAGCUG,0.407
AGCUUGCAUGCUAUGGAGUCUACCAGAGAGUCAUUGAAAGCAGAACUGGGAACUGAUUUGCUUUCUCAACUGAGUUUGGAAGAUCAGAAGAGAGUAGAUGCACUGAAUGAUGAGAUUCGU,0.104
UCUAUUGUAUGGAAACAGCUACUUCCCCUUGCUCCACUUACCUUCAAACUGCCAGCCACUUGGCUAUUAUUUGUUCUAUUUAGUACCUCCUGGGUUGGUUUUUAACCAUAAUUACAUUUC,0.493
CAGCAGACCUGCCCACUGUGCAAAUUCAACGUCCUGGGGAACCGCUACUCCGAUGAUUAGCUGCCCAGCUGGACUCUGCACAUGGGGAUGGACCCUUCCUGCCUGCACCCCGGUCCUCAG,0.0805
CUGGGAAUUGGGCCAGGACCAGUAGAACUAAUUGAUGAAGUUACUGGCCACCUAAAACUUUACUAGAUAAGCUUUUGCUUGAUGGAGAUUCUGUCCGAAGACUAUGGAGCCUGUCAGUAA,0.392

# Repeated from above (sample 2):
Strand,fluorescence intensity [a.u.]
GAAATTGAACAACACCACGCAGTCTAGTAATGTTAG,514
GAAGACAAGCAACCACACCACATGAGCTCACAATAG,604
CTATGATGTTGTATATGCCTGATGTAATCACGATTC,544
GAACACAGCCCACCTCACCCCACAGGAAAACAGTAG,532
TGTACGAAGCTATAACACGTATGTATAGTAGTTAGG,498
CTAGAAAAGTATTACATCAGCACGAGTAACAACTTC,624
